Experimental data of several laboratories.
A part holds a random share of what one study measured. Positions count from the first letter of the parent shown.
Sequence of UniProt Q13131 (whole entry, looked up): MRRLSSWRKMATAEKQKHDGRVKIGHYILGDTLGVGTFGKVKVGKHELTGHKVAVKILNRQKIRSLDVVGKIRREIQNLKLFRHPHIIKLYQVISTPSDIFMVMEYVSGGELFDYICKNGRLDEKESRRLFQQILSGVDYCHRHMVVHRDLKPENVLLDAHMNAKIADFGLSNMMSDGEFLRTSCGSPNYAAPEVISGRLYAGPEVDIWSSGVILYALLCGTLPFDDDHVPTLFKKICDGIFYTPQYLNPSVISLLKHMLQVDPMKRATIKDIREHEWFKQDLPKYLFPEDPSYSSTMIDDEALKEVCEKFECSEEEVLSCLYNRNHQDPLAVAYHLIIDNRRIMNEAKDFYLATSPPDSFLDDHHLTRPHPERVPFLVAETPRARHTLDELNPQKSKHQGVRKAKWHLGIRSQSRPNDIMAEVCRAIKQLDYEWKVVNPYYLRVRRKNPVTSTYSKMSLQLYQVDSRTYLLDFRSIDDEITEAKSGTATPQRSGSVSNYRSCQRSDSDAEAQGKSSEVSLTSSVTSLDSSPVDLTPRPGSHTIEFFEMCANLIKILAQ
Sequence of UniProt P42336 (whole entry, unmodified, looked up): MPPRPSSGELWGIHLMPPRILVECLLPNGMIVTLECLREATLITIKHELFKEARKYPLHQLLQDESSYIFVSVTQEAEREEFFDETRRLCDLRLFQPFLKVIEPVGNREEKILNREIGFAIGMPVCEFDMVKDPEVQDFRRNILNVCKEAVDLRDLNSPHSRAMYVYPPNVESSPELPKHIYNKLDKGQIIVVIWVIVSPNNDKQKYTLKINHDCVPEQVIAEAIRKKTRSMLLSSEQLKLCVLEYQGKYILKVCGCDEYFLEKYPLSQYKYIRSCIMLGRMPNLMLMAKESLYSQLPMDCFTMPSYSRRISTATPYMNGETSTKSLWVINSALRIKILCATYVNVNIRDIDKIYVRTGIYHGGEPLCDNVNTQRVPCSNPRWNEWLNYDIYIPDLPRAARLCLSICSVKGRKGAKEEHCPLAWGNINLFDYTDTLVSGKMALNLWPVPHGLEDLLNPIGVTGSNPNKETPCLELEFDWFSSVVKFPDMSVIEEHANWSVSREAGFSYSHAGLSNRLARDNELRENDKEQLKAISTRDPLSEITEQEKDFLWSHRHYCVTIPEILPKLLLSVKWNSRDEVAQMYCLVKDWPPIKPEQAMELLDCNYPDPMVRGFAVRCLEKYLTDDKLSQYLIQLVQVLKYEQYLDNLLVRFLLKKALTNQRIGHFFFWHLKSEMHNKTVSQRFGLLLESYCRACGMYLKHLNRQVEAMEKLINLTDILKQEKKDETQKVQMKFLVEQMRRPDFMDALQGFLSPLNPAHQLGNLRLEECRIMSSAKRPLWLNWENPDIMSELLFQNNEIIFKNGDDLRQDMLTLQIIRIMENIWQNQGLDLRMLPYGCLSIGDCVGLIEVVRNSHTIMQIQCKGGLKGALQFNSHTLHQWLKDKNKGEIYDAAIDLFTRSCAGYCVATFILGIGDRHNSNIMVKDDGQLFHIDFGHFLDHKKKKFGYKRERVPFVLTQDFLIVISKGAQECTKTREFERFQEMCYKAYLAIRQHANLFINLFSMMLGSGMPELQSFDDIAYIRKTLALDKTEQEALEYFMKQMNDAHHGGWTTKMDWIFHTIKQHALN
Sequence of UniProt P41743 (whole entry, looked up): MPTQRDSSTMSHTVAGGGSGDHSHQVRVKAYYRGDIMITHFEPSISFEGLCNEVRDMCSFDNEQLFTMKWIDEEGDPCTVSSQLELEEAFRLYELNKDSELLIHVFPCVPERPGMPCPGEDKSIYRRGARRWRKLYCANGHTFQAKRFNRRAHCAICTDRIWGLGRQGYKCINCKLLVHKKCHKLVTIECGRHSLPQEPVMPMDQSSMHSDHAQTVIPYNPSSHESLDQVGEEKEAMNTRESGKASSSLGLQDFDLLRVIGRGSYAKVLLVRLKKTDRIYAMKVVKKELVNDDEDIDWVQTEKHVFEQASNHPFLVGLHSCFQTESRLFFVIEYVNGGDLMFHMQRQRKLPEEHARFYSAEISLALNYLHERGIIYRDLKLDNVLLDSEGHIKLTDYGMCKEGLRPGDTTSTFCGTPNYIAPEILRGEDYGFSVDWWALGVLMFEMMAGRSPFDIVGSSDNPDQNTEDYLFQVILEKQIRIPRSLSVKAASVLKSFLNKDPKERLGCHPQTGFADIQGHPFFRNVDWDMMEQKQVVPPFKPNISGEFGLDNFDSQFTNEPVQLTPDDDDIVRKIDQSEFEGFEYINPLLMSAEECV
Sequence of UniProt Q9UM73 (whole entry, unmodified, looked up): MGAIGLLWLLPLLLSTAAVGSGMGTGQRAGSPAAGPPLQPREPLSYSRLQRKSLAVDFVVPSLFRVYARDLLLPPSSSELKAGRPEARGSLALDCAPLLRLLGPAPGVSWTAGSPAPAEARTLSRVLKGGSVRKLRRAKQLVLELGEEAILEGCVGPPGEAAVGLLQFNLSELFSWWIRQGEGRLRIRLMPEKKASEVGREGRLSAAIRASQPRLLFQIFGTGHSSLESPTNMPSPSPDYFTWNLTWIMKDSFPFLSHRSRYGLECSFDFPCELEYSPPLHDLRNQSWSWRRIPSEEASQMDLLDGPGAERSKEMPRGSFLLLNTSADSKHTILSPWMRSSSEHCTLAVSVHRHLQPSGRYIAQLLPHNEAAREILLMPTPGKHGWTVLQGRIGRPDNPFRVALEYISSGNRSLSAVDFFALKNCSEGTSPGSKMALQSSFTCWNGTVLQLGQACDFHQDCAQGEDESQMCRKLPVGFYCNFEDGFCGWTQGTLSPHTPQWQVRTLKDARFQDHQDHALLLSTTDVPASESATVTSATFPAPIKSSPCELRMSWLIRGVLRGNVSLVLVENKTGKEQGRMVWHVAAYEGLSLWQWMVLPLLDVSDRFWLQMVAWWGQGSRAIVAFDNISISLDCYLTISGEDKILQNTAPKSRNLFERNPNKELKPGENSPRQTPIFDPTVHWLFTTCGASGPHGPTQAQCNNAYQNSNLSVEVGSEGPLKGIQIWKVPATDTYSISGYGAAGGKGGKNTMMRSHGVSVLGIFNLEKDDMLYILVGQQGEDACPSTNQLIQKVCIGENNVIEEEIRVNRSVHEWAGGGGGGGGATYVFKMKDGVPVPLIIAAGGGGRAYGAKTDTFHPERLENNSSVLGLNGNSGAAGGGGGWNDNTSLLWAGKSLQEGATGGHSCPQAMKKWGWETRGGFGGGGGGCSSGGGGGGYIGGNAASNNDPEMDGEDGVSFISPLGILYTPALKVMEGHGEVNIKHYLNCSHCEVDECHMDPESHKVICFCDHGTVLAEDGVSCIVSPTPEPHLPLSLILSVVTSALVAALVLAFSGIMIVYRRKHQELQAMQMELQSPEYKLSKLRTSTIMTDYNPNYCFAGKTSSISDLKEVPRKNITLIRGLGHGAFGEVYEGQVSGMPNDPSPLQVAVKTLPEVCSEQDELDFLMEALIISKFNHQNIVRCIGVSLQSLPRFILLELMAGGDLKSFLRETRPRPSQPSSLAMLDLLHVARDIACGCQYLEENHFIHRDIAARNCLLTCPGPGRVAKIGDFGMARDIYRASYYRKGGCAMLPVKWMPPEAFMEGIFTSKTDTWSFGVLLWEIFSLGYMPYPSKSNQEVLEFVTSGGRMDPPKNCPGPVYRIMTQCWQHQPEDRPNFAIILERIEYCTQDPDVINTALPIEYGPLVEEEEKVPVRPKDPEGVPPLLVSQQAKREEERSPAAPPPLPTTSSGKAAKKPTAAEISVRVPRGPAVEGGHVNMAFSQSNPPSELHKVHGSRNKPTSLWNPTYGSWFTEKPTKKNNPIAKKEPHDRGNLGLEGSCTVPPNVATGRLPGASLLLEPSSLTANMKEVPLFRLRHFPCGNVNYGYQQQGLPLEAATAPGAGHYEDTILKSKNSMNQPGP

Set 1
Species: mouse
Sample: microsomes or S9
Concentration: 2 µM
Time: 0.5 h
| SMILES | remaining compound [%] |
| --- | --- |
| O=C(CCc1ccc(C(F)(F)F)cc1)N1C2C=CCC1CC2 (stereo not shown) | 2.39 |
| Cc1cc(C)nc(N2N=C(c3ccccc3)CC2=O)n1 | 79.9 |
| O=C(CCCCCNc1ncccn1)Nc1nc[nH]n1 | 75.9 |

Set 2
Target: ABI1, truncated, D143A, DHFR fusion (Arabidopsis thaliana, UniProt P49597)
Method: DHFR PCA, dose-response
Sample: yeast
Setting: Hill fit, mean, not affinity
Added: (+)-ABA, dose series
Reading: lower = more sensitive
Starting sequence: PYL1, truncated, DHFR fusion (Arabidopsis thaliana, UniProt Q8VZS8); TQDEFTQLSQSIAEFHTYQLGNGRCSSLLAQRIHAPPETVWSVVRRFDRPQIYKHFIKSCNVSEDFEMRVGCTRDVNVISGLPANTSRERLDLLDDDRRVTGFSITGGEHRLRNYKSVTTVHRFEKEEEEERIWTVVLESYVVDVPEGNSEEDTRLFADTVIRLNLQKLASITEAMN
| Change | ABA EC50 |
| --- | --- |
| R32H | 2.49 µM |
| E14Q | 4.24 µM |
| T73H | 2.74 µM |
| G108S | 451 µM |
| E67Q | 2.96 µM |
| D3N | 5.39 µM |
| R90W | 497 µM |
| A158N | 70.4 µM |

Set 3
Target: Sal-like protein 4, full length isoform B (SALL4, Homo sapiens, UniProt Q9UJQ4-2, residues 1-616)
Method: universal PBM
Form: double-stranded DNA, one strand shown
Sample: in vitro
Concentration: not given
Setting: 8-mer, flanks averaged, mean of replicates
Reading: higher = stronger binding
| Strand | E-score |
| --- | --- |
| GCACAGAC | -0.00814 |
| CTATTCCA | 0.12 |
| GAACCTCA | -0.0664 |
| CCAATAAG | 0.0804 |
| AAACAGCA | 0.206 |
| CCATCGGG | -0.226 |
| CCGGTTCA | -0.257 |
| ACAATTAA | 0.364 |

Set 4
SMILES: CN(c1ccnc(CNc2nc(Nc3ccc4c(c3)CC(=O)N4)ncc2C(F)(F)F)n1)S(C)(=O)=O
Method: competition with immobilised ligand
Concentration: 1 µM
| target | assay | remaining binding |
| --- | --- | --- |
| NUAK1 (Homo sapiens, UniProt O60285) | cell-free assay | 21% |
| PRKAA1 (Homo sapiens, UniProt Q13131) | cell-free assay | 80% |
| LRRK2 (Homo sapiens, UniProt Q5S007) | cell-free assay | 15% |
| EPHA4 (Homo sapiens, UniProt P54764) | cell-free assay | 90% |
| MUSK (Homo sapiens, UniProt O15146) | cell-free assay | 92% |
| FLT3 (Homo sapiens, UniProt P36888, N841I) | binding | 0% |
| Tyrosine-protein kinase ABL1, non-phosphorylated (ABL1, Homo sapiens, UniProt P00519, F317I) | binding | 100% |
| SLK (Homo sapiens, UniProt Q9H2G2) | cell-free assay | 41% |
| ALK (Homo sapiens, UniProt Q9UM73, L1196M) | cell-free assay | 65% |
| PIK3CA (Homo sapiens, UniProt P42336, M1043I) | cell-free assay | 95% |
| Insulin receptor (INSR, Homo sapiens, UniProt P06213) | cell-free assay | 100% |
| PRKCI (Homo sapiens, UniProt P41743) | cell-free assay | 55% |
| PLK4 (Homo sapiens, UniProt O00444) | cell-free assay | 50% |
| ZAP70 (Homo sapiens, UniProt P43403) | cell-free assay | 61% |

Mixed results
| SMILES | target | assay | setting | scale | measurement | value |
| --- | --- | --- | --- | --- | --- | --- |
| O=C(Nc1cnn(-c2csc(C(=O)NC3COC3)c2)c1)Nc1c(F)cccc1Cl | MAP/microtubule affinity-regulating kinase 4 (MARK4, Homo sapiens, UniProt Q96L34) | enzyme activity | 5 µM | relative to: untreated control | remaining activity | 97.9% |
